Published values pooled from the literature.
Compare with care: the assays were run in different laboratories.
Organism: Escherichia coli

SMILES | test | system | setting | MIC
CC(=O)OCc1cc(-c2nc3ccccc3n(-c3ccc([N+](=O)[O-])cc3[N+](=O)[O-])c2=O)nn1-c1ccccc1 | microbial growth | ATCC25922 | – | > 500 µg/mL
Cc1cc(N)c2cc(NC(=O)c3ccc4cc(C5CC5)ccc4c3)ccc2n1 | – | BW25113 wild type | – | 200 µM
CC(C)C[C@@H]1NC(=O)[C@H](C)NC(=O)[C@H](NC(=O)[C@H](CO)NC(=O)[C@@H](CCCCN)NC(=O)[C@@H](CC(C)C)N(C)C(=O)[C@@H](N)Cc2ccccc2)[C@H](C)OC(=O)[C@H](CC(C)C)NC1=O | – | ATCC 10798 | TFA salt | > 32 µg/mL
CC[C@H](C)[C@H](NC(=O)[C@H](CCCNC(=N)N)NC(=O)[C@H](CC(C)C)NC(=O)[C@H](CC(C)C)NC(=O)[C@H](C)NC(=O)[C@@H](NC(=O)[C@H](CCCCN)NC(=O)[C@H](CCCCN)NC(=O)[C@H](C)NC(=O)[C@@H](NC(=O)[C@H](Cc1c[nH]c2ccccc12)NC(=O)[C@@H](NC(=O)[C@H](Cc1ccc(O)cc1)NC(=O)[C@H](Cc1ccccc1)NC(=O)[C@H](CC(=O)O)NC(=O)[C@H](Cc1ccc(O)cc1)NC(=O)[C@@H](NC(=O)[C@H](CC(C)C)NC(=O)[C@H](CO)NC(=O)[C@H](C)NC(=O)[C@H](C)NC(=O)[C@@H](NC(=O)[C@@H](NC(=O)[C@@H](N)CC(C)C)[C@@H](C)CC)C(C)C)C(C)C)[C@@H](C)O)[C@@H](C)CC)C(C)C)C(=O)N[C@@H](C)C(=O)N[C@@H](CCCCN)C(=O)N[C@@H](CCCCN)C(=O)N[C@H](C(=O)N[C@@H](CC(C)C)C(=O)N[C@@H](Cc1ccc(O)cc1)C(=O)N[C@@H](CC(C)C)C(=O)N[C@@H](C)C(=O)N[C@@H](CCCNC(=N)N)C(=O)N[C@@H](CC(N)=O)C(=O)N[C@@H](C)C(=O)O)C(C)C | – | ATCC 25922 | 24 h | 1 µM
CC[C@H](C)[C@H](NC(=O)[C@@H](Cc1ccccc1)NC)C(=O)OC[C@H](N)C(=O)N[C@H](CCCNC(=N)N)C(=O)N[C@@H](C(=O)N[C@H](C(=O)OC[C@H](N)C(=O)N[C@H]1C(=O)N[C@@H](C)C(=O)N[C@@H](C2CCCCC2)C(=O)N[C@@H]([C@@H](C)CC)C(=O)O[C@H]1C)[C@@H](C)CC)[C@@H](C)CC | broth microdilution | ATCC 10798, Mueller-Hinton broth | 16 h, 37 °C | > 8 µg/mL
Cc1cc(N)c2cc(NC(=O)c3ccc4cc(C(=O)N5CCN(C)CC5)ccc4c3)ccc2n1 | – | hyperporinated ΔtolC | – | 200 µM
CCCCCCCCCCCCCCCCCC(=O)N[C@@H](CCCNC(=N)N)C(=O)N[C@@H](CCCNC(=N)N)C(=O)N[C@@H](CCCNC(=N)N)C(=O)N[C@@H](CCCNC(=N)N)C(=O)N[C@@H](CCCNC(=N)N)C(N)=O | broth microdilution | K12 | 16-24 h, 37 °C, prepared at pH 7 | ≥ 32 µg/mL
CC[C@H](C)[C@H](NC(=O)[C@H](C)NC(=O)[C@H](C)NC(=O)[C@H](Cc1ccccc1)NC(=O)[C@H](C)NC(=O)CNC(=O)[C@H](Cc1ccccc1)NC(=O)[C@@H](N)Cc1ccccc1)C(=O)N[C@@H](C)C(=O)N[C@@H](CO)C(=O)N[C@@H](CC(C)C)C(=O)N[C@H](C(=O)N[C@H](C(=O)N1CCC[C@H]1C(=O)N[C@@H](CCCCN)C(=O)N[C@@H](CC(C)C)C(=O)N[C@H](C(=O)N[C@@H](CCC(=O)O)C(=O)N[C@@H](CCCCN)C(=O)N[C@H](C(=O)N[C@@H](CCCCN)C(=O)N[C@@H](CCC(N)=O)C(=O)N[C@@H](C)C(=O)N[C@@H](CCCNC(=N)N)C(N)=O)[C@@H](C)CC)[C@@H](C)CC)[C@@H](C)CC)C(C)C | – | ATCC 35218, MHC medium with bicarbonate | – | > 50 µM
N=C(N)NCCC[C@@H]1NC(=O)[C@H](CCCNC(=N)N)NC(=O)[C@H](CCCNC(=N)N)NC(=O)[C@H](CCCNC(=N)N)NC(=O)[C@H](Cc2c[nH]c3ccccc23)NC(=O)[C@H](CCCNC(=N)N)NC(=O)[C@H](CCCNC(=N)N)NC(=O)[C@@H](N)CCCn2cc(nn2)C[C@@H](C(N)=O)NC1=O | – | ATCC 25922 | 24 h, 37 °C | 250 µg/mL
CC[C@H](C)[C@H](NC(=O)[C@H](CC(C)C)NC(=O)[C@H](C)NC(=O)[C@H](CO)NC(=O)[C@H](CCCNC(=N)N)NC(=O)[C@@H](N)CO)C(=O)N[C@H](C(=O)N[C@@H](Cc1c[nH]cn1)C(=O)N[C@@H](CCC(N)=O)C(=O)N[C@@H](CCCNC(=N)N)C(=O)N[C@@H](CC(C)C)C(=O)N[C@@H](Cc1ccccc1)C(N)=O)C(C)C | broth microdilution | Mueller Hinton broth | – | > 400 µg/mL
CCCCCCCCCCCCC(=O)O.O=C1CCCC2C3CCCN4CCCC(CN12)C34 (centres unmarked) | bacterial growth, broth dilution | ATCC 25922 | – | inactive
CCCCCCSCC1OC(OC2C(N)CC(N)C(OC3OC(CN)C(O)CC3N)C2O)C(O)C(N)C1O (centres unmarked) | – | BL21(DE3) Eis-expressing | – | > 150 µg/mL
CCCCCCCCC/C=C\CCCc1cc(=O)c2ccccc2n1C | broth microdilution | Luria-Bertani broth | – | > 1000 µg/mL
CC[C@H](C)[C@H](NC(=O)[C@H](CCCCNC(=N)N)NC(=O)[C@H](CC(N)=O)NC(=O)[C@H](CC(C)C)NC(=O)[C@H](Cc1ccccc1)NC(=O)[C@H](CCCCNC(=N)N)NC(=O)[C@H](CCCCNC(=N)N)NC(=O)[C@H](CC(C)C)NC(=O)[C@H](CC(C)C)NC(=O)[C@H](CCCCNC(=N)N)NC(=O)[C@H](CCCCNC(=N)N)NC(=O)[C@H](CC(C)C)NC(=O)CNC(C)=O)C(=O)N[C@@H](CCCCNC(=N)N)C(=O)N[C@@H](CCCCNC(=N)N)C(N)=O | broth microdilution | ATCC 25922 | – | 3.12 µM
c1ccc(CCNC2CCCc3c2[nH]c2ccc(C4CCCCC4)cc32)cc1 (centres unmarked) | broth microdilution | MB5746 hyperpermeable, efflux-deficient, cation-adjusted Mueller-Hinton broth | – | 2 µg/mL
OB(O)c1ccc(OCc2ccccc2)nc1F | bacterial growth | CTX-M-14 ESBL clinical isolate | cefotaxime alone | 64 µg/mL
CC[C@H](C)[C@H](NC(=O)[C@H](CO)NC(=O)[C@H](CO)NC(=O)[C@H](Cc1ccccc1)NC(=O)CN)C(=O)N[C@@H](Cc1ccccc1)C(=O)N[C@@H](CCCNC(=N)N)C(=O)NCC(=O)N[C@H](C(=O)N[C@@H](C)C(=O)N[C@@H](CCCCN)C(=O)N[C@@H](Cc1ccccc1)C(=O)N[C@@H](C)C(=O)N[C@@H](CO)C(=O)N[C@@H](CCCCN)C(=O)NCC(=O)N[C@@H](CC(C)C)C(=O)NCC(=O)N[C@@H](CCCCN)C(N)=O)C(C)C | – | ATCC 8739 | pretreated trypsin 0.25 mg/mL | > 128 µM
C[C@@H](N)[C@H](O)CCCCCCCC(=O)CCCCCCCCCCCCCC[C@@H](O[C@@H]1O[C@H](CO)[C@H](O)[C@H](O)[C@H]1O)[C@H](N)CO | microbial growth, resazurin | ATCC10536 | 6 h | 22.8 µM
CCCO[C@H]1[C@H](O)[C@@H](N)[C@@H](O[C@H]2[C@H](O[C@@H]3O[C@H](CO)[C@@H](O[C@H]4O[C@@H](CN)[C@@H](O)[C@H](O)[C@H]4N)[C@H]3O)[C@@H](O)[C@H](N)C[C@@H]2N)O[C@@H]1CO | broth microdilution | clinical isolate AG 001 | – | 32 µg/mL
NCCCC[C@@H]1NC(=O)[C@@H](CCCCN)NC(=O)[C@H](CCCCN)NC(=O)[C@@H](CCCCN)NC(=O)[C@H](Cc2c[nH]c3ccccc23)NC(=O)[C@@H](Cc2c[nH]c3ccccc23)NC(=O)[C@@H](N)CSCc2ccc(cc2)CSC[C@@H](C(N)=O)NC(=O)[C@@H](Cc2c[nH]c3ccccc23)NC(=O)[C@H](Cc2c[nH]c3ccccc23)NC(=O)[C@@H](CCCCN)NC1=O | – | W3110 | – | 32 µg/mL
Cc1ccc(C2OC(c3ccc(C)cc3)C(C)C(=NOCc3cn(-c4ccccc4)nn3)C2C)cc1 (centres unmarked) | microbial growth, broth dilution | MTCC443 | 24 h | 12.5 µg/mL
CCCCCCCCCCCCCCCCC(=O)N[C@@H](CCCCN)C(=O)N[C@@H](CCCCN)C(=O)N[C@@H](CCCCN)C(=O)N[C@@H](CCCCN)C(=O)N[C@@H](CCCCN)C(N)=O | broth microdilution | K12, water pH 7 | 18 h, 37 °C | 4 µg/mL
CC[C@H](C)[C@H](NC(=O)[C@H](CCCCN)NC(=O)[C@H](CC(C)C)NC(=O)[C@H](C)NC(=O)[C@H](CC(C)C)NC(=O)[C@H](CO)NC(=O)[C@H](C)NC(=O)[C@H](CC(C)C)NC(=O)[C@H](Cc1ccccc1)NC(=O)[C@@H]1CCCN1C(=O)[C@H](CC(C)C)NC(=O)[C@@H](N)Cc1ccccc1)C(=O)N[C@@H](CC(C)C)C(N)=O | – | BAA 2340 | 10% human serum | > 128 µM
COc1ccc(-c2cc(C(F)(F)F)n3nc(N)nc3n2)cc1OC | microbial growth, broth dilution | DC2 | 20 h | > 128 µg/mL
CCCCCCCCCCCCCCCCCCSCC1OC(OC2C(N)CC(N)C(OC3OC(CN)C(O)CC3N)C2O)C(O)C(N)C1O (centres unmarked) | – | BL21(DE3) pET22b | – | > 150 µg/mL
COc1ccc2nc(C)cc(OCC(=O)Nc3cc(C)cc(C)c3)c2c1 | broth microdilution | 3 | – | > 64 µM

For quick reference, copied from above:
SMILES | test | system | setting | MIC
COc1ccc(-c2cc(C(F)(F)F)n3nc(N)nc3n2)cc1OC | microbial growth, broth dilution | DC2 | 20 h | > 128 µg/mL
CCCCCCCCCCCCCCCCCCSCC1OC(OC2C(N)CC(N)C(OC3OC(CN)C(O)CC3N)C2O)C(O)C(N)C1O (centres unmarked) | – | BL21(DE3) pET22b | – | > 150 µg/mL
COc1ccc2nc(C)cc(OCC(=O)Nc3cc(C)cc(C)c3)c2c1 | broth microdilution | 3 | – | > 64 µM
